Published values collected from several papers.
Lines come from different studies, so protocols differ. “And” joins repeats or separate records; there may be more than shown. ± gives the spread as reported.

`O=C(COc1ccc(Cl)cc1)NC12CC(c3nnc([C@H]4C[C@@H](OC(F)(F)F)C4)o3)(C1)C2` — result for “ATF4 protein change”: -66.6% (healthy human, PBMC; oral, 800 mg single dose, day 2, 24 h post-dose, median, added: sodium arsenite ex vivo; relative to: baseline).
The EC50 of `CC1(C)CCC(c2ccc(Cl)cc2)=C(CN2CCN(c3ccc(C(=O)NS(=O)(=O)c4ccc(N[C@H](CCN5CCOCC5)CSc5ccccc5)c(S(=O)(=O)C(F)(F)F)c4)cc3)CC2)C1` is reported as 10 nM (cell kill; primary neoplastic T lymphocytes, dog 8; 24 h, multicentric intermediate-large T-cell lymphoma).
With `CC(C)[C@H](C(=O)Nc1ccc(C(=O)NO)cc1)c1ccccc1` the speech discrimination was 0% (human, left ear; 9 months after treatment).
`C[C@H]1C[C@H]2CSC(N)=N[C@@]2(c2nc(NC(=O)c3ccc(OC(F)F)cn3)cs2)CO1` — result for “percent change from baseline”: -58.2% (measured: total Aβ; healthy adults, plasma; 400 mg single dose, 24 h post-dose; relative to: placebo).
For `COc1cc2cc(-c3ccc(CC(=O)Nc4cc(C(C)(C)C(F)(F)F)no4)cn3)cnc2cc1OC`, “progressive disease as best response” read 18% (human RET-altered advanced solid tumours; dose not given, phase I total, RECIST 1.1).
The ORR of `C=CC(=O)N1CCC(c2ccc(C(N)=O)c(-c3ccc(Oc4ccccc4)cc3)n2)CC1` is reported as 80.2% (tumour response, Lugano classification; patients with relapsed/refractory MCL; independent review, 10.5 months follow-up).
With `COc1cc(N2CCC(N3CCN(C)CC3)CC2)ccc1Nc1ncc(Cl)c(Nc2ccccc2P(C)(C)=O)n1` the tumour volume was 102 mm3 and 43.9 mm3 and 39.9 mm3 and 91.9 mm3 and 41.9 mm3 (nude mice, NCI-H3122 xenograft; intraperitoneal, 10 mg/kg every other day, day 3).
With `O[C@H]1CCCN[C@@H]1CCCn1cnc2c(Cl)c(Cl)ccc21` the maximum reduction was 19.9% (ELISA, measured: Pro-C3; healthy human volunteers, serum; intraduodenal, 25 mg twice daily, day 14, multiple ascending dose).
With `C[C@@H](NC(=O)N1C(=O)[C@H](Cc2ccnc(N)c2)[C@H]1C(=O)O)C1CCCCC1` the ACT AUEC was 14000 h·s (human; iv infusion, 2.25 mg/kg/h, 24 h).
With `O=C(O)CNC(=O)Cc1ccccc1` the sarcomere length was 1.72 µm (ventricular cardiomyocytes, C57BL/6 mouse; dose not given, 0.764 s).
`N#Cc1ccc2c(-c3ccncc3)c(-c3ccc(F)cc3)nn2c1`: “log2 fold change” 0.113 (kinase binding, competitor, MIB/MS competition, measured: NPR1; Candida albicans cell lysate; 10 µM; relative to: DMSO).
Under “tumour volume difference”, `C=CCn1c(=O)c2cnc(Nc3ccc(N4CCN(C)CC4)cc3)nc2n1-c1ccc2c(n1)[C@@](O)(CC)CC2` is recorded as 164 ± 22.8 mm3 (SUM149PT xenograft, BALB/c nude mice; oral, 80 mg/kg, day 33, once daily intermittent x 6 cycles).
The Aβ42 level of `Cn1cc([C@H]2C[C@H]3CSC(N)=N[C@@]3(c3ccc(F)cc3F)CO2)cn1` is reported as 0.68 ng/g (measured: Aβx-42; Mus musculus wild-type, brain; subcutaneous, 3 mg/kg, 9 h).
`c1ccc(-c2n[nH]cc2-c2ccnc3ccccc23)nc1`: “log2 fold change” 0.397 (kinase binding, competitor, MIB/MS competition, measured: RIO2; Candida albicans cell lysate; 10 µM; relative to: DMSO).
`O=C(OC(C(F)(F)F)C(F)(F)F)N1CCN(Cc2cccc(Oc3ccccc3)c2)CC1` — result for “volume of distribution”: 1.37 mL/cm3 (PET blocking study; rhesus monkey, brain occipital cortex; intravenous, 0.3 mg/kg, compound pretreatment, added: [18F]T-401 tracer).
With `Oc1ccc(Br)cc1C=NCCN1CCOCC1` the inhibition was 34.7% (superoxide scavenging; 160 µM).
`CC(C)(C=C(C#N)C(=O)N1CCC[C@H]1Cn1nc(-c2ccc(Oc3ccccc3)cc2F)c2c(N)ncnc21)N1CCOCC1` gave a dissociation half-life of 2.53 ± 0.18 min (10-fold dilution, LC-MS, added: β-mercaptoethanol).
For `Cc1cc(-c2nnc(N)nc2-c2ccc(F)cc2)cc(Cl)n1`, “GSVA score change” read -0.138 (NanoString, measured: Macrophages.Prat.IO signature; human mCRPC, peripheral blood; dose not given, 2 or 4 weeks; relative to: baseline, direction not given).
`Cc1noc(C)c1-c1cc(C(O)(c2ccccn2)c2ccccn2)c2nc(C3CC3)[nH]c2c1` gave a maximum induction of 94% (measured: HEXIM1 expression; human, peripheral blood; 6 mg, day 8, 1599 study).
For `CC(CCc1ccc(O)cc1)NCCc1ccc(O)c(O)c1` (stereo not drawn), “heart rate change” read 8.3% (anaesthetised rat; intravenous infusion, 1 µg/kg/min for 15 min; relative to: baseline).
`C[C@@H](O)CCOC(=O)C[C@@H](C)O` gave a metabolite level of -7.63 ± 0.45 µmol/L (measured: C18:2-OH acylcarnitine; human, plasma; 60 min, log2-transformed values).
Under “progressive disease, best response”, `O=C1Nc2cc3[nH]nc(-c4ccncc4)c3cc2CN1Cc1ccccc1` is recorded as 40% (RECIST v1.1; human, relapsed or refractory advanced solid tumours; intravenous, 7.2 mg/kg, pooled schedules).
For `CCN(Cc1nc2c(N)nc3cc(-c4cc[nH]n4)ccc3c2[nH]1)C(C)=O`, “patients with increased CTLs” read 67% (immunohistochemistry, measured: CD3+CD8+ granzyme B+ cells; patients with advanced solid tumours, injected tumour lesions; dose not given, monotherapy).
The reticulocytes of `CC(=O)NCC(=O)NCC(=O)N[C@H](C(=O)N[C@@H](Cc1ccc(O)cc1)C(=O)N[C@@H](CO)C(=O)N[C@H]1CSSC[C@@H](C(=O)N[C@@H](CCCNC(=N)N)C(=O)N2CCC[C@H]2C(=O)N[C@@H](CCC(N)=O)C(=O)N[C@@H](CCCNC(=N)N)C(=O)NCC(=O)NCCC(=O)N[C@@H](CCCCNC(=O)CN(CC(=O)NCCCC[C@H](NC(=O)CCNC(=O)CNC(=O)[C@H](CCCNC(=N)N)NC(=O)[C@H](CCC(N)=O)NC(=O)[C@@H]2CCCN2C(=O)[C@H](CCCNC(=N)N)NC(=O)[C@@H]2CSSC[C@H](NC(=O)[C@H](CO)NC(=O)[C@H](Cc3ccc(O)cc3)NC(=O)[C@@H](NC(=O)CNC(=O)CNC(C)=O)[C@@H](C)O)C(=O)N[C@@H](Cc3c[nH]cn3)C(=O)N[C@@H](Cc3ccccc3)C(=O)NCC(=O)N[C@@H](C)C(=O)N[C@@H](CC(C)C)C(=O)N[C@@H]([C@@H](C)O)C(=O)N[C@@H](Cc3c[nH]c4ccccc34)C(=O)N[C@@H](C(C)C)C(=O)N2)C(N)=O)C(=O)CCN)C(N)=O)NC(=O)[C@H](C(C)C)NC(=O)[C@H](Cc2c[nH]c3ccccc23)NC(=O)[C@H]([C@@H](C)O)NC(=O)[C@H](CC(C)C)NC(=O)[C@H](C)NC(=O)CNC(=O)[C@H](Cc2ccccc2)NC(=O)[C@H](Cc2c[nH]cn2)NC1=O)[C@@H](C)O` is reported as 5.8% (healthy BALB/c mice; subcutaneous, 0.16 mg/kg, 4 d, single dose).
For `Cc1nc(-c2ccc(OCC(C)C)c(C#N)c2)sc1C(=O)O`, “decrease in serum uric acid” read 93.1% (mouse, acute hyperuricaemia model; 1 mg/kg).
`COc1ccccc1[C@H](Cn1c(=O)n(C(C)(C)C(=O)O)c(=O)c2c(C)c(-c3ncco3)sc21)OC1CCOCC1`: “fractional hepatic DNL” 8.34 % new palmitate ([1-13C]acetate infusion, isotopomer analysis; overweight or obese healthy men, plasma VLDL-TG palmitate; oral, 50 mg single dose, 7 h post-dose, added: oral fructose).
`OC(CCN1CCCCC1)(c1ccccc1)C1CC2C=CC1C2` (stereo not drawn) — result for “change in EEG Alpha1-power Pz-O2”: -20.4% (resting-state EEG; healthy elderly humans; oral, 2 mg, eyes closed, LS mean; relative to: baseline).
`CCN1CCN(Cc2ccc(Nc3ncc(F)c(-c4cc(F)c5nc6n(c5c4)[C@H](C)CCC6)n3)nc2)CC1` has a progressive disease of 0% (human advanced solid tumours; 200 mg, phase Ia monotherapy RECIST 1.1).
Under “patients not evaluable for response”, `COc1ncnn2ccc(-c3cnc4nc(C)n(Cc5nnc([C@@H](C)F)o5)c4c3)c12` is recorded as 0% (Homo sapiens, relapsed or refractory AML or MDS; dose not given, splicing factor mutation-positive).
`COc1nnc2ccc(N3CCC(c4ccc(OCCN5CCN(C)C(=O)[C@H]5C)cc4)CC3)nn12` — result for “time above HEXIM1 threshold”: 7.34 h (human patients; 40 mg once daily, above baseline variability).
`N#Cc1ccc2c(c1)[C@H]1CCCN(C(=O)c3ccc4[nH]cnc4c3)[C@H]1C2`: “total urinary corticosteroids” 68.7 % change (human, urine; 20 mg, 24 h, day 1 over day -1; relative to: placebo and baseline).
`C[C@H](NC(=O)c1c(C(F)F)nn(C)c1Oc1cccc(C(F)(F)F)c1)c1ccc(C(=O)O)cc1` — result for “patients with stable disease”: 23.3% (irRECIST best overall response; patients with advanced tumours; dose not given, all dose groups combined).
`C[C@H]1O[C@@H](O[C@H]2CC[C@@]3(C)[C@@H](CC[C@]4(C)[C@@H]3C=C[C@]35OC[C@@]6(CCC(C)(C)C[C@H]63)[C@@H](O)C[C@]54C)[C@]2(C)CO)[C@H](O)[C@@H](O[C@@H]2O[C@H](CO)[C@@H](O)[C@H](O)[C@H]2O)[C@H]1O`: “body weight change” -0.5 g and -0.2 g and -0.3 g and -0.7 g and -0.6 g (chronic-plus-binge ethanol mice; oral, 10 mg/kg/day for 7 d, 168 h).
`C[C@H](Oc1ccc(Br)cc1-c1ccon1)C(=O)O` — result for “difference from placebo”: 0.073 mV (mean CMAP amplitude; human, tibialis anterior muscle; 800 mg, SAD).
`N#Cc1ccn2c(-c3ccncc3)c(-c3ccc(F)cc3)nc2c1` — result for “log2 fold change”: -0.251 (kinase binding, competitor, MIB/MS competition, measured: HRK1; Candida albicans cell lysate; 100 nM; relative to: DMSO).
`FC(F)(F)CN1CC(n2cc(Oc3ccn4nc(Cl)cc4n3)cn2)C1` gave a reduction of 70% (measured: C26:0 fatty acid; Abcd1-/y mouse, brain; feed, 100 mg/kg/day, 7 months).
`COC(=O)CCc1ccc(OCC(O)CNC(C)C)cc1` (stereo not drawn) has a heart rate of 59.3 beats/min (healthy male humans; concentration not given, 15 min, baseline before dosing, added: saline).
`CC(C)NCC(O)c1ccc(O)c(O)c1` (stereo not drawn) gave a sarcomere length of 1.72 µm (ventricular cardiomyocytes, C57BL/6 mouse; dose not given, 0.628 s).
The tumour volume of `C[C@]12CC[C@@H]3c4ccc(O)cc4C[C@@H](CCCCCCCCC[S+]([O-])CCCC(F)(F)C(F)(F)F)[C@H]3[C@@H]1CC[C@@H]2O` (stereo partly drawn) is reported as 37.8 mm3 and 42.5 mm3 and 17.4 mm3 and 27.7 mm3 and 32.7 mm3 and 34 mm3 (female nude mouse LCC2 xenograft; 2.0 mg/kg, day 3, tamoxifen-resistant).
`CCc1c(C)nc(-c2ccc(Cl)s2)nc1Nc1ccc(CC(=O)O)cc1`: serum TBIL “decreased” (C57BL/6J mice, MCD diet; intraperitoneal, 0.3 mg/kg daily, MCD diet 6 weeks, dosed last two; relative to: vehicle).
`CN(C)C(=O)c1cc2cnc(Nc3ccc(N4CCNCC4)cn3)nc2n1C1CCCC1` — result for “GSEA enrichment score”: -0.267 (RNA-seq GSEA, measured: HALLMARK_HEME_METABOLISM; MB002 tumour; concentration not given, in vivo; relative to: vehicle, direction not given).
`NC(=O)c1cnc2[nH]ccc2c1N[C@@H]1[C@@H]2CC3C[C@H]1C[C@@](O)(C3)C2` — result for “change from baseline”: -0.7% (flow cytometry, measured: CD8+ naive T cells; Japanese healthy subjects, peripheral blood; oral, 10 mg twice daily, day 7).
The inhibition of `CN[C@@H]1COc2c(S(=O)(=O)NC(=O)Nc3c4c(cc5c3CCC5)CCC4)cnn2C1` is reported as 74.9% (measured: IL-18; human participants, whole blood ex vivo; 900 mg single dose, 24 h, IL-18, circulating, adjusted for, added: LPS/ATP; relative to: baseline).
With `CC[C@@H]1[C@H](F)C(=O)N[C@@H]1COc1nccc2cc(C(N)=O)c(OC)cc12` the inhibition was 2.6% (ATP-site probe binding, ActivX profiling, measured: CDK11, CDK8; THP-1 cell lysate; 0.2 mM, Lys2 site).
Under “brain tissue loss”, `CC1=NN(c2ccccc2)C(=O)C1` is recorded as 6.59% (Nissl staining; Rattus norvegicus, MCAO/R model; concentration not given, post-MCAO/R, day 21).

For quick reference, copied from above:
`NC(=O)c1cnc2[nH]ccc2c1N[C@@H]1[C@@H]2CC3C[C@H]1C[C@@](O)(C3)C2` — result for “change from baseline”: -0.7% (flow cytometry, measured: CD8+ naive T cells; Japanese healthy subjects, peripheral blood; oral, 10 mg twice daily, day 7).
For `COc1cc2cc(-c3ccc(CC(=O)Nc4cc(C(C)(C)C(F)(F)F)no4)cn3)cnc2cc1OC`, “progressive disease as best response” read 18% (human RET-altered advanced solid tumours; dose not given, phase I total, RECIST 1.1).
`C[C@@H](O)CCOC(=O)C[C@@H](C)O` gave a metabolite level of -7.63 ± 0.45 µmol/L (measured: C18:2-OH acylcarnitine; human, plasma; 60 min, log2-transformed values).
